Published values from different studies.
Compare with care: the assays were run in different laboratories. Values joined by “and” are separate records of one study, mostly repeats; a detail may differ.
Target: cAMP-dependent protein kinase catalytic subunit PRKX (PRKX, Homo sapiens, UniProt P51817)
Residues used in one study (P51817 1-358): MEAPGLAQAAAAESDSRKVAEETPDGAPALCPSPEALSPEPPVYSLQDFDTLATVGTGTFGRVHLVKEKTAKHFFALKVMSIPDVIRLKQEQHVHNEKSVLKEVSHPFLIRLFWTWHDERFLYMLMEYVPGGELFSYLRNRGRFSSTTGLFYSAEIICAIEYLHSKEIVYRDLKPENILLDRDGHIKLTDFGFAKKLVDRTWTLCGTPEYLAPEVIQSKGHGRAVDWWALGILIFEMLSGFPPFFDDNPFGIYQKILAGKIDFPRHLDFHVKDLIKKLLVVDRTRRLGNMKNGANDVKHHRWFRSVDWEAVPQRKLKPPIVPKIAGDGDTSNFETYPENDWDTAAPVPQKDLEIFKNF

SMILES	test	conditions	how to read	quantity	value
Nc1ncc(-c2cc(-c3cnn(CC(F)(F)F)c3)ncc2F)nc1C(=O)NC1CNCC(F)C1 (stereo not drawn)	enzyme activity	1 µM	relative to: DMSO control	remaining activity	91.1%
CCn1cc(C(=O)O)c(=O)c2c(N)c(F)c(NC3CCCCC3)cc21	kinase activity	0.1 µM, added: ATP at Km	–	inhibition	-14.5%
C=CC(=O)N1CCCC(n2c(=O)c3ncccc3n(Cc3ccc(Oc4ccccc4)cc3)c2=O)C1 (stereo not drawn)	cell-free assay, competition with immobilised ligand	1 µM	–	remaining binding	94%
COc1cc(Nc2nc(C)cc(-c3cnn4nc(OC)ccc34)n2)cc(C(F)(F)F)c1	inhibitor	1 µM	relative to: control	remaining activity	87%
O=C=[N][Ru-4]123([n]4c5ccc(O)cc5c5c6c(c7cc(F)c[n+]1c7c54)C(=O)NC6=O)[S+]1CC[S+]2CC[S+]3CC1 (stereo not drawn)	enzyme activity	100 nM, human enzyme, added: 10 µM ATP	relative to: untreated	remaining activity	66%
NC(=O)C[C@H]1CCc2sc3ncnc(O[C@H]4CC[C@H](N5CCOCC5)CC4)c3c21	enzyme activity, inhibitor	10 µM	–	inhibition	0%
Cc1cccc(O[C@H]2CCC[C@@H](C(C)CNCc3ccncc3)C2)c1 (relative stereo)	enzyme activity, inhibitor	1 µM	–	inhibition	-1%
C=CC(=O)N1CCc2ccc(-n3c(=O)ccc4cnc5ccc(-c6cnn(C)c6)cc5c43)cc21	KINOMEscan	1 µM	relative to: DMSO control	remaining binding	100%
CCN1CCN(Cc2ccc(C(=O)Nc3ccc(C)c(NCc4cnc5[nH]ccc5c4OC)c3)cc2C(F)(F)F)CC1	binding, competition with immobilised ligand	1 µM	–	remaining binding	100%
O=C(Cc1ccc(OCc2ccccc2)cc1)NC1(C(=O)O)CCN(C(=O)c2ccc(-c3cccc(Cl)c3)cc2)CC1	enzyme activity, inhibitor	10 µM	–	activity vs control	113%
COCC12C(=O)NC3C4(C(OC)CC1O)C1CC5(O)C(OC)C(O)C(OC(C)=O)(C1C5OC(=O)c1ccccc1)C3(O)C(OC)C24 (stereo not drawn)	kinase activity, inhibitor, ProQinase kinase profiling	25 µM	relative to: control	remaining activity	101% and 100%
Cc1cnc2nc1Nc1cccc(c1)COC/C=C/COCc1cc(ccc1OCCN1CCOCC1)N2	binding	0.1 µM	–	remaining binding	98%
COc1c(OCCCN2CCOCC2)ccc2c1N=C(NC(=O)c1cnc(N)nc1)N1CCN=C21	kinase activity, inhibitor	1 µM	relative to: untreated control	remaining activity	118%
Cc1c[nH]c2nccc(-c3ccc(C(=O)N[C@@H]4c5c(F)cc(C(F)F)cc5C[C@@H]4O)cn3)c12	binding, competition with immobilised ligand	3 µM	–	remaining binding	0%
C=CC(=O)Nc1cccc(-c2cnc3[nH]cc(C(=O)NC(C)(C)C)c3n2)c1	enzyme activity, inhibitor	0.1 µM	–	inhibition	3%

A few entries again:
SMILES	test	conditions	how to read	quantity	value
O=C(Cc1ccc(OCc2ccccc2)cc1)NC1(C(=O)O)CCN(C(=O)c2ccc(-c3cccc(Cl)c3)cc2)CC1	enzyme activity, inhibitor	10 µM	–	activity vs control	113%
COCC12C(=O)NC3C4(C(OC)CC1O)C1CC5(O)C(OC)C(O)C(OC(C)=O)(C1C5OC(=O)c1ccccc1)C3(O)C(OC)C24 (stereo not drawn)	kinase activity, inhibitor, ProQinase kinase profiling	25 µM	relative to: control	remaining activity	101% and 100%
